{"data": "Measurements from different studies", "note": "A part holds a random share of what one study measured. Values joined by “and” are separate records of one study, mostly repeats; a detail may differ.", "chain of UniProt O14976 (whole entry, looked up)": "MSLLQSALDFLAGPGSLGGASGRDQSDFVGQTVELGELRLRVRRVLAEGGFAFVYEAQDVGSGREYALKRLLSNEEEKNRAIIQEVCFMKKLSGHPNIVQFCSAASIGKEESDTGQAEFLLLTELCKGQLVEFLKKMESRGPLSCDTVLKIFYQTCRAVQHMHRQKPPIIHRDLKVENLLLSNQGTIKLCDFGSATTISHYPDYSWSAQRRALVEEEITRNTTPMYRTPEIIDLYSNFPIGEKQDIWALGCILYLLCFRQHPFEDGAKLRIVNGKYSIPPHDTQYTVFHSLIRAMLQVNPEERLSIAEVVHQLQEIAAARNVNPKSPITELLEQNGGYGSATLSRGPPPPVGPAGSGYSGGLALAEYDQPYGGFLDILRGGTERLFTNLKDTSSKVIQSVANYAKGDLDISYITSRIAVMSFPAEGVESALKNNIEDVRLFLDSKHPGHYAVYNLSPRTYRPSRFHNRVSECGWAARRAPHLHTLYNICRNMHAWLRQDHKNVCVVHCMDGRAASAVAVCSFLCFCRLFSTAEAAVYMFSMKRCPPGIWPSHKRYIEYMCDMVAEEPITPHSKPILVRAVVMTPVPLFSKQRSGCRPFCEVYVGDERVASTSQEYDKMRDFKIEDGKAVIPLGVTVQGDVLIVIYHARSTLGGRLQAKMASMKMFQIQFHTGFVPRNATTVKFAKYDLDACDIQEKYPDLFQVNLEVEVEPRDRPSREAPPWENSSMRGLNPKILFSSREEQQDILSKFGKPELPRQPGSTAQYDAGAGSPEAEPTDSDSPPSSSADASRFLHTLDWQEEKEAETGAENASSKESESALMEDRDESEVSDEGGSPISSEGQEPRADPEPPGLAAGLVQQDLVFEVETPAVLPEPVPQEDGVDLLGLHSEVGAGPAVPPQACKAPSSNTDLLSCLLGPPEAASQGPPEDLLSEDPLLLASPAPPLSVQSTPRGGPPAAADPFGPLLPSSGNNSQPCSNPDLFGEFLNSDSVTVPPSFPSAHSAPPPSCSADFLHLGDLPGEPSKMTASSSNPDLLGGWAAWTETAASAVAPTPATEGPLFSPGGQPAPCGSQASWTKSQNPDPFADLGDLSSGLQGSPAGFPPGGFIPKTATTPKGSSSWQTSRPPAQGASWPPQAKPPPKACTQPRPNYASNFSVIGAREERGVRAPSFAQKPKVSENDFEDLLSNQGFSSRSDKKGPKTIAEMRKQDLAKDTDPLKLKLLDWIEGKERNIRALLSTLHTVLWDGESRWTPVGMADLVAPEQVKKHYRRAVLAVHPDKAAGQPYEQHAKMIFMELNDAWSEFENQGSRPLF", "chain of UniProt Q9NYL2 (whole entry, looked up)": "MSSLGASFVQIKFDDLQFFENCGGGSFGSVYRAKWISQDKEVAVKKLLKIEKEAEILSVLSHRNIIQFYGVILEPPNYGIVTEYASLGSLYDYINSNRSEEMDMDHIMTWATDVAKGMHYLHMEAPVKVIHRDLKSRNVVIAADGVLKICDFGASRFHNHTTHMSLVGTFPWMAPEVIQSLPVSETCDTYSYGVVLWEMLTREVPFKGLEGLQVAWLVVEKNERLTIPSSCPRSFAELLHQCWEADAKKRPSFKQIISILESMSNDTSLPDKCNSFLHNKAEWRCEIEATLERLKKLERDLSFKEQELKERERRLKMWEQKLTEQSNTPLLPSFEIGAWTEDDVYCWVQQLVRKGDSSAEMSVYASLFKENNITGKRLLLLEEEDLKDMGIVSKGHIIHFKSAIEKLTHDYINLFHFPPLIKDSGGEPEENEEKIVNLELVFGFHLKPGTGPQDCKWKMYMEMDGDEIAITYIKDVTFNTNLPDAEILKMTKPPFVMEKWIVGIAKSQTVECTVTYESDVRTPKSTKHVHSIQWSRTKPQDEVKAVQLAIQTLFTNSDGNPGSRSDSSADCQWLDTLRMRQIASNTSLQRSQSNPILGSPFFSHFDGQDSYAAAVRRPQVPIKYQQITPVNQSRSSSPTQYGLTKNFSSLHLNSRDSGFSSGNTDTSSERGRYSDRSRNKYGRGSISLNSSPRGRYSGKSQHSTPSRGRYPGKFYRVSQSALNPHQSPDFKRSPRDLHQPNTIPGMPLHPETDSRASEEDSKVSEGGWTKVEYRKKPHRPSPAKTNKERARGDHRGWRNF", "chain of UniProt Q9Y2K2 (whole entry, looked up)": "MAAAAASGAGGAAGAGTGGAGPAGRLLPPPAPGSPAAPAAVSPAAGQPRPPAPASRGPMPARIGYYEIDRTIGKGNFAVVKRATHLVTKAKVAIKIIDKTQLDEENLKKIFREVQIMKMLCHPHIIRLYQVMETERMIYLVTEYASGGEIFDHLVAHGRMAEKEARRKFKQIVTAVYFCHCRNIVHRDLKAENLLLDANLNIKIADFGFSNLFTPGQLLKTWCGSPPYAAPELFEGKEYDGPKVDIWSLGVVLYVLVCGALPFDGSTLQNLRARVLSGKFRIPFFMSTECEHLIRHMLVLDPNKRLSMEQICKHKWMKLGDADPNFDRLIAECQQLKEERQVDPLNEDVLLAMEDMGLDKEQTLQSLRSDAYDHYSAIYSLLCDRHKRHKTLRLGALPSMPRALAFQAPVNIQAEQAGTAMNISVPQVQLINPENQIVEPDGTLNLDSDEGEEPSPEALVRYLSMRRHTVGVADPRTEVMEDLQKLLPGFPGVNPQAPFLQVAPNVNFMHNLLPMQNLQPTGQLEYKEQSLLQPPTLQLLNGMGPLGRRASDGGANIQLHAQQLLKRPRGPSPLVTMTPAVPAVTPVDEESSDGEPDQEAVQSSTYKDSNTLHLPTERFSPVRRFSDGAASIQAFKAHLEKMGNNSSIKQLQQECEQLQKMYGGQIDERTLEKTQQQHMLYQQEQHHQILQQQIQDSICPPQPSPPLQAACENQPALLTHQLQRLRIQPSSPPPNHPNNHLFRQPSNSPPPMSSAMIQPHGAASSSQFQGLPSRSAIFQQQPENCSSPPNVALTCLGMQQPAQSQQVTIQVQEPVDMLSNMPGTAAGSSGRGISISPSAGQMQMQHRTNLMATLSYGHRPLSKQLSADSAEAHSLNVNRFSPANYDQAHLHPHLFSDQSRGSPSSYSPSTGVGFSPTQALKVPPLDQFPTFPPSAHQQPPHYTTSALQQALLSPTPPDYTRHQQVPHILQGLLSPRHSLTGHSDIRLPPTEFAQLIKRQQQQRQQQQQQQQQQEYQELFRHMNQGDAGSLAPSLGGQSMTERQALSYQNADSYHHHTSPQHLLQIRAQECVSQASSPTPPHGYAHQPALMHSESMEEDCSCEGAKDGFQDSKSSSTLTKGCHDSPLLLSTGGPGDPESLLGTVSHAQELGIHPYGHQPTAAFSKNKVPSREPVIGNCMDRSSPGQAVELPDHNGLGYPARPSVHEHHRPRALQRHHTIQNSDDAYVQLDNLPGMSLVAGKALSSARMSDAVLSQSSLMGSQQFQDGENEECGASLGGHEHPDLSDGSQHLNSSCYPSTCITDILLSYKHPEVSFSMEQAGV", "chain of UniProt Q8N752 (whole entry, looked up)": "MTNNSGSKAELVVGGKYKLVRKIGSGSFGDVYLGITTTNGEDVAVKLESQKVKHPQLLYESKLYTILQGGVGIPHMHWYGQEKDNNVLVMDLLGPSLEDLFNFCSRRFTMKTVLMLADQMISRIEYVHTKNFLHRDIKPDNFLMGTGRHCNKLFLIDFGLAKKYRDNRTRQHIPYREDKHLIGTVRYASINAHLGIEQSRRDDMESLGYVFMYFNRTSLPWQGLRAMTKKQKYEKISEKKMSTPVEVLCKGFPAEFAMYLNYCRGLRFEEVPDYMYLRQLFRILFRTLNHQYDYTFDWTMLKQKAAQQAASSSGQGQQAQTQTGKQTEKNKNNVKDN", "chain of UniProt O43353 (whole entry, looked up)": "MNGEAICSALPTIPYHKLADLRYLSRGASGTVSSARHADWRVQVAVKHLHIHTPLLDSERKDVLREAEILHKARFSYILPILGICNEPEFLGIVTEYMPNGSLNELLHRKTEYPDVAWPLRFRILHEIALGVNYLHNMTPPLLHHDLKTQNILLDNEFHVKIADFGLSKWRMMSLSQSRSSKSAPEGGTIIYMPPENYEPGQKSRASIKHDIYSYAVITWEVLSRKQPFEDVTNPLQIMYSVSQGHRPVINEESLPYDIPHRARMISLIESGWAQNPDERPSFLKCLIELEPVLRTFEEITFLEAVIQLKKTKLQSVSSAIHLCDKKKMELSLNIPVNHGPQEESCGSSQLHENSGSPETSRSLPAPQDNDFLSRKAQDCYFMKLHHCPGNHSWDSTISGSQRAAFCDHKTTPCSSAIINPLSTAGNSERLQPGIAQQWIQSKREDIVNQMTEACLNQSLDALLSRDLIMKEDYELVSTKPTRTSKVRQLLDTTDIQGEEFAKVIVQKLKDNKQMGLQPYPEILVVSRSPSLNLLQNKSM"}
{"data": "Sample 1", "target": "Alpha-1B adrenergic receptor (ADRA1B, Homo sapiens, UniProt P35368)", "observed": "ligand displacement", "tested at": "10 µM", "chain of UniProt P35368 (whole entry, looked up)": "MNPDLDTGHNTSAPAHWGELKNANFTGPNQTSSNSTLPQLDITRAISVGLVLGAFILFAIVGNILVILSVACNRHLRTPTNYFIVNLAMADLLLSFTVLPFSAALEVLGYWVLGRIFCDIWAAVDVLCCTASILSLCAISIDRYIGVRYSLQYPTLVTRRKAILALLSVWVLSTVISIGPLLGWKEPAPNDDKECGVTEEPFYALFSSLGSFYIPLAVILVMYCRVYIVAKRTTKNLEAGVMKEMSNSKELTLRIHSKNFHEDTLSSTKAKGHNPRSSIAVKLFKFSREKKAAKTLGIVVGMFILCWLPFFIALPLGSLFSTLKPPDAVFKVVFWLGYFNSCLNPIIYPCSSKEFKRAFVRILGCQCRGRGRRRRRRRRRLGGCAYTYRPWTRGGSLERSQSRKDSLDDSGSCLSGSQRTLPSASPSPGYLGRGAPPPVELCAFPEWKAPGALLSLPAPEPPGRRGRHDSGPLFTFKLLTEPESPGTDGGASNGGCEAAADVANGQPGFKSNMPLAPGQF"}
{"Compound": "CN1CCN(c2cnc3c(C4CCN(C(=O)c5ccc(OC(F)(F)F)cc5N)CC4)ncnc3c2)CC1", "inhibition [%]": 16.4}
{"Compound": "Cc1cc(Nc2nccc(C)n2)cc(-c2cnc([C@@]3(O)CC[C@H](C(=O)O)C(C)(C)C3)s2)c1", "inhibition [%]": 3.23}
{"Compound": "Nc1nc(NCc2ccccc2)nc(-c2cccc(CO)c2)n1", "inhibition [%]": 5.01}
{"Compound": "CC[C@H](CC(=O)O)n1c(=O)c2ncccc2n(Cc2cn(C)c3cc(C)cc(C)c23)c1=O", "inhibition [%]": -5.58}
{"Compound": "CCC(=NO)C(C)=Cc1ccc(F)c(C)c1", "inhibition [%]": 0.56}
{"Compound": "C[C@@H](c1cccc(C#N)c1)n1cc(Cl)cc(C(N)=O)c1=N", "inhibition [%]": -5.97}
{"Compound": "Cn1nc(C(=O)NCc2ccc(C(=O)O)cc2)cc1-c1ccc2[nH]ccc2c1", "inhibition [%]": -6.1}
{"Compound": "Cc1ccccc1Oc1cc(-n2c(=O)cc(C(F)(F)F)[nH]c2=O)c2ccccc2c1Cl", "inhibition [%]": 19.3}
{"Compound": "CNC(=N)NCCC[C@H](NC(=O)[C@H](CC(C)C)NC(=O)NNC(=O)[C@H](Cc1ccccc1)NC(=O)[C@H](CO)NC(=O)[C@H](CC(N)=O)NC(=O)[C@@H](Cc1ccncc1)NC(=O)[C@H](N)Cc1ccc(O)cc1)C(=O)N[C@@H](Cc1ccccc1)C(N)=O", "inhibition [%]": -7.65}
{"Compound": "O=C1NC(c2ccccn2)Sc2ccccc21 (centres unmarked)", "inhibition [%]": -5.82}
{"Compound": "CC1=C(C#N)C(c2ccc3[nH]nc(C)c3c2)C(C#N)=C(C)N1", "inhibition [%]": 1.79}
{"Compound": "COc1ccc2cc(OCC3(C(=O)O)CN(C(=O)c4ccc(F)cc4)C3)ccc2c1", "inhibition [%]": -11.4}
{"Compound": "COCCOc1nc(-c2ccc(Cl)nc2)nc2c1CN(C(=O)c1ncn3ccccc13)CC2", "inhibition [%]": 10.8}
{"Compound": "NC(=O)c1ccc2nc(-c3ccc(C4(N)CCC4)cc3)c(-c3ccccc3)n2n1", "inhibition [%]": -8.97}
{"Compound": "C[C@H](c1ccnc(Nc2nc3ccc(-c4cc(N(C)C)ncn4)cc3[nH]2)c1)N1CCN(C(=O)CC(F)(F)F)CC1", "inhibition [%]": 2.95}
{"Compound": "CCOc1ccc(S(=O)(=O)Nc2ccc(Cl)cc2C#Cc2cnc(C(=O)O)cc2OC)c2ncccc12", "inhibition [%]": -9.4}
{"Compound": "O=c1nc(-c2ccccn2)sc2ccccc12", "inhibition [%]": 9.84}
{"Compound": "c1ccc(N2CCN(Cc3nc4ccccc4[nH]3)CC2)nc1", "inhibition [%]": 23.5}
{"Compound": "C[C@H](c1ccc(F)cc1)N(Cc1cccc(C(=O)O)c1)C(=O)c1cnc2ccccc2c1", "inhibition [%]": -0.5}
{"Compound": "O=C(NCCCC1CCCCC1)c1ccc(CNC(=O)c2cnn(-c3ccccc3)c2C(F)(F)F)cc1", "inhibition [%]": -3.62}
{"Compound": "O=C(N[C@H]1CCCCC/C=C\\C2C[C@@]2(C(=O)O)NC(=O)[C@@H]2C[C@@H](Oc3ccncc3)CN2C1=O)OC1CCCC1 (some centres unmarked)", "inhibition [%]": -7.2}
{"Compound": "Cc1ccc(-c2cnc([C@@]3(O)CC[C@H](C(=O)O)C(C)(C)C3)s2)cc1Nc1cccc(C(F)(F)F)n1", "inhibition [%]": 7.9}
{"Compound": "C[C@@H]1CN(c2cc(-c3n[nH]c4ccc(OC5(C)CC5)cc34)ncn2)C[C@H](C)O1", "inhibition [%]": -12.5}
{"Compound": "CCc1ccccc1C(=O)Nc1n[nH]c2c(C)c(F)c(C3C(C#N)=C(C)N(C)C(C)=C3C#N)cc12", "inhibition [%]": -9.38}
{"Compound": "CN(C)c1ncnc(-c2ccc3nc(Nc4cc(CN5CCN(C(=O)CC(F)(F)F)CC5)ccn4)[nH]c3c2)c1Cl", "inhibition [%]": 4.51}
{"data": "Sample 2", "SMILES": "C[C@H]1CC[C@H](n2c3cnccc3c3cnc(Nc4ccc5c(n4)CCN(C(=O)CO)C5)nc32)CC1", "tested at": "1 µM"}
{"target": "Macrophage colony-stimulating factor 1 receptor (CSF1R, Homo sapiens, UniProt P07333)", "observed": "cell-free assay", "technique": "competition with immobilised ligand", "remaining binding [%]": 0.6}
{"target": "Casein kinase I isoform alpha-like (CSNK1A1L, Homo sapiens, UniProt Q8N752)", "observed": "binding", "remaining binding [%]": 79}
{"target": "Mitogen-activated protein kinase kinase kinase 20 (MAP3K20, Homo sapiens, UniProt Q9NYL2)", "observed": "binding", "technique": "competition with immobilised ligand", "remaining binding [%]": 100}
{"target": "Ephrin type-A receptor 6 (EPHA6, Homo sapiens, UniProt Q9UF33)", "observed": "cell-free assay", "technique": "competition with immobilised ligand", "remaining binding [%]": 89}
{"target": "Serine/threonine-protein kinase MAK (MAK, Homo sapiens, UniProt P20794)", "observed": "binding", "remaining binding [%]": 52}
{"target": "MAP kinase-interacting serine/threonine-protein kinase 2 (MKNK2, Homo sapiens, UniProt Q9HBH9)", "observed": "binding", "technique": "competition with immobilised ligand", "remaining binding [%]": 3.4}
{"target": "Serine/threonine-protein kinase SIK3 (SIK3, Homo sapiens, UniProt Q9Y2K2)", "observed": "binding", "technique": "competition with immobilised ligand", "remaining binding [%]": 81}
{"target": "Epidermal growth factor receptor (EGFR, Homo sapiens, UniProt P00533)", "observed": "cell-free assay", "technique": "competition with immobilised ligand", "remaining binding [%]": 82}
{"target": "Cyclin-G-associated kinase (GAK, Homo sapiens, UniProt O14976)", "observed": "binding", "technique": "competition with immobilised ligand", "remaining binding [%]": 2}
{"target": "FLT3 ITD mutant, human", "technique": "scanMAX kinase panel", "reference": "control", "remaining binding [%]": 0.3}
{"target": "Ephrin type-B receptor 3 (EPHB3, Homo sapiens, UniProt P54753)", "observed": "cell-free assay", "technique": "competition with immobilised ligand", "remaining binding [%]": 83}
{"target": "Receptor-type tyrosine-protein kinase FLT3 (FLT3, Homo sapiens, UniProt P36888)", "observed": "binding", "technique": "competition with immobilised ligand", "remaining binding [%]": 0.25}
{"target": "Receptor-interacting serine/threonine-protein kinase 2 (RIPK2, Homo sapiens, UniProt O43353)", "observed": "binding", "technique": "competition with immobilised ligand", "remaining binding [%]": 100}
{"data": "Sample 3", "target": "Tyrosine-protein kinase receptor TYRO3 (TYRO3, Homo sapiens, UniProt Q06418)", "observed": "enzyme activity", "action": "inhibitor", "tested at": "0.5 µM", "reference": "control", "Target sequence (Q06418 1-890)": "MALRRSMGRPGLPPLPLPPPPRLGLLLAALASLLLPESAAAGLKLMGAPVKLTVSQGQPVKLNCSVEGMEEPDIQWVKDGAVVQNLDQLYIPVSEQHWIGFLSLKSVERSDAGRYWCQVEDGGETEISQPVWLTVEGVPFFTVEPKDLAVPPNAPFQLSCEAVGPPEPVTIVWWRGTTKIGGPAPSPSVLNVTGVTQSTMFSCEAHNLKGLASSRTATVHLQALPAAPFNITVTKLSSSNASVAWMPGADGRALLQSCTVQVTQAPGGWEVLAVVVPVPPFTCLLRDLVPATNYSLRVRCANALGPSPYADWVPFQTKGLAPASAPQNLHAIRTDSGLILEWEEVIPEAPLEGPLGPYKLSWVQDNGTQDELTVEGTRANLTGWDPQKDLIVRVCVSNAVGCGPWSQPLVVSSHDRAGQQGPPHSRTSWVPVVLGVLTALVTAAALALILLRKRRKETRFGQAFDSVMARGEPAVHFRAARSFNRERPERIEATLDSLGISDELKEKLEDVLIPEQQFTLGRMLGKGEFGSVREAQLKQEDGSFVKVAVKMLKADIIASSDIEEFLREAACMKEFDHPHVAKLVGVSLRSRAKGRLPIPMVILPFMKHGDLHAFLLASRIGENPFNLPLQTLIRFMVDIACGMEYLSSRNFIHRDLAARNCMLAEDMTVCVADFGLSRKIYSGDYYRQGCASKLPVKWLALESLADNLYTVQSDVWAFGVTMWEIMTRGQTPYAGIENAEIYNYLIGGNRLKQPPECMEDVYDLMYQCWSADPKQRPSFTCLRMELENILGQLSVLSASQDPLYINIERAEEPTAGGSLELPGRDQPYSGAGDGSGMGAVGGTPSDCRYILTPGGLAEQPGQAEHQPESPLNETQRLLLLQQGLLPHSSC"}
{"Compound": "CCCCc1c(-c2ccc(OC)cc2)[nH]c2nccnc12", "remaining activity [%]": 98.6}
{"Compound": "Cc1ccc(S(=O)(=O)/C=C/C#N)cc1", "remaining activity [%]": 99.8}
{"Compound": "c1ccc2c(-c3ccncc3)c[nH]c2c1", "remaining activity [%]": 98.1}
{"Compound": "CN1CCN(c2ccc3nc(-c4c(N)c5c(F)cccc5[nH]c4=O)[nH]c3c2)CC1", "remaining activity [%]": 23.8}
{"Compound": "O=C(c1cc2cc(O)ccc2[nH]1)c1cc2cc(O)ccc2[nH]1", "remaining activity [%]": 76.3}
{"Compound": "Cc1cc(Nc2cc(N3CCN(C)CC3)nc(Sc3ccc(NC(=O)C4CC4)cc3)n2)[nH]n1", "remaining activity [%]": 85}
{"Compound": "O=C1Nc2ccccc2/C1=C\\c1c(Cl)[nH]c2ccccc12", "remaining activity [%]": 99.4}
{"data": "Sample 4", "cell line": "mouse MPNST tumor cells", "technique": "high-content nuclear imaging", "refers to": "cell number", "tested at": "10 µM", "time": "12 h", "setting": "mean of 2 replicates", "reference": "plate mean", "reading": "higher = more cells"}
{"Structure (SMILES)": "CS(=O)(=O)Nc1ccc([N+](=O)[O-])cc1OC1CCCCC1", "nuclei count": "0.886 z-score"}
{"Structure (SMILES)": "Nc1ccc(S(=O)(=O)NC(=O)c2ccccc2)cc1", "nuclei count": "0.834 z-score"}
{"Structure (SMILES)": "COc1cc2c(cc1OC)CN(C(=O)C=Cc1c(-c3ccccc3)n(C)c3ncccc13)CC2", "nuclei count": "-0.34 z-score"}
{"Structure (SMILES)": "C[C@]12C=CC(=O)C=C1CC[C@@H]1[C@@H]2[C@@H](O)C[C@@]2(C)[C@H]1CC[C@]2(O)C(=O)CO", "nuclei count": "4.85 z-score and 3.55 z-score"}
{"Structure (SMILES)": "CC(C)(C)c1ccc(OC2CCCCC2O)cc1 (centres unmarked)", "nuclei count": "2 z-score"}
{"Structure (SMILES)": "COc1cc(-c2ccc(=O)[nH]n2)ccc1OC(F)F", "nuclei count": "1.74 z-score and 2.19 z-score"}
{"Structure (SMILES)": "CCN(CC)CCOC(=O)C(Cc1cccc2ccccc12)CC1CCCO1 (centres unmarked)", "nuclei count": "1.6 z-score"}
{"Structure (SMILES)": "COc1cc2nc(N(C)CCCNC(=O)C3CCCO3)nc(N)c2cc1OC (centres unmarked)", "nuclei count": "4.34 z-score"}
{"Structure (SMILES)": "O=C(Nc1cccnc1)c1cc(-c2ccnc(F)c2)ccc1OCc1ccccc1", "nuclei count": "0.241 z-score"}
{"Structure (SMILES)": "O=C(Nc1ccc(-c2ccncc2)cc1)N[C@H](CO)c1ccccc1", "nuclei count": "-1.02 z-score"}
{"Structure (SMILES)": "O=C(NCCNCC(O)COc1ccc(O)cc1)N1CCOCC1 (centres unmarked)", "nuclei count": "1.44 z-score and 1.51 z-score"}
